Published values collected from several papers.
Every numbered part comes from another study and shows a few of its results, in no order. “And” joins repeats or separate records; there may be more than shown.
Chain of UniProt P31152 (whole entry, looked up): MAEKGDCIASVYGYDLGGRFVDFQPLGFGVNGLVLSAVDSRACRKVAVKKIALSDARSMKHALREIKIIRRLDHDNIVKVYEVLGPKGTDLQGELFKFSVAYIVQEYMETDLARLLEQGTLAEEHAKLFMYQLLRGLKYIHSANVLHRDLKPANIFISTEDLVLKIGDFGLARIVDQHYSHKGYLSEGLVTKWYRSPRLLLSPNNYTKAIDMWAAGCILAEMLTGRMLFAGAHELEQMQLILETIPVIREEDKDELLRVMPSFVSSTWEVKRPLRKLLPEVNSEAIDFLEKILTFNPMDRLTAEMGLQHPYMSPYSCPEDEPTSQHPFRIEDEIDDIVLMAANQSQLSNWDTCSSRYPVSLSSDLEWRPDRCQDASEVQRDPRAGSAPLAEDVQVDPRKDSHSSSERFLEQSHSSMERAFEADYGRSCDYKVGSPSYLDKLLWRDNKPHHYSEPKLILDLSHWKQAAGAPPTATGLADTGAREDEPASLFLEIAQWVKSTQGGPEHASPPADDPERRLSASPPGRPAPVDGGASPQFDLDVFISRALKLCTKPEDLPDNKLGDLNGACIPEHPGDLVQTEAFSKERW
Chain of UniProt Q9H4B4 (whole entry, looked up): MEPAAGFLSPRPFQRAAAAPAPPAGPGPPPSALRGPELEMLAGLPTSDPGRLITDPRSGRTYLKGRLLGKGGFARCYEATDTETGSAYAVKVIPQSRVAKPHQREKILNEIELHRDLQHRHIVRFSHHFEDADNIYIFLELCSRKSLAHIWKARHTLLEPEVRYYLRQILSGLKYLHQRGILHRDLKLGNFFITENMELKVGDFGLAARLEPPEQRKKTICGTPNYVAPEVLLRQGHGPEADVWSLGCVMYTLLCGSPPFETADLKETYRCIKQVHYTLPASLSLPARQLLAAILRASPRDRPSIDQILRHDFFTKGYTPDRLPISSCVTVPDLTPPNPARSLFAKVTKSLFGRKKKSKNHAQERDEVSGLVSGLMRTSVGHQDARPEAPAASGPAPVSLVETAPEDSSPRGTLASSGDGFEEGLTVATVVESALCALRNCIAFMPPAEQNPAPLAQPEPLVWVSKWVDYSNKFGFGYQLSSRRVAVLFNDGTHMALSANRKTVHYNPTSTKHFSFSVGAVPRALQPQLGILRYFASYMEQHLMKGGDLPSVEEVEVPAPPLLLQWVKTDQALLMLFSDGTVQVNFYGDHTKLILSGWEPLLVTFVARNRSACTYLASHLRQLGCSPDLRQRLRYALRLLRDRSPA
Chain of UniProt Q14289 (whole entry, looked up): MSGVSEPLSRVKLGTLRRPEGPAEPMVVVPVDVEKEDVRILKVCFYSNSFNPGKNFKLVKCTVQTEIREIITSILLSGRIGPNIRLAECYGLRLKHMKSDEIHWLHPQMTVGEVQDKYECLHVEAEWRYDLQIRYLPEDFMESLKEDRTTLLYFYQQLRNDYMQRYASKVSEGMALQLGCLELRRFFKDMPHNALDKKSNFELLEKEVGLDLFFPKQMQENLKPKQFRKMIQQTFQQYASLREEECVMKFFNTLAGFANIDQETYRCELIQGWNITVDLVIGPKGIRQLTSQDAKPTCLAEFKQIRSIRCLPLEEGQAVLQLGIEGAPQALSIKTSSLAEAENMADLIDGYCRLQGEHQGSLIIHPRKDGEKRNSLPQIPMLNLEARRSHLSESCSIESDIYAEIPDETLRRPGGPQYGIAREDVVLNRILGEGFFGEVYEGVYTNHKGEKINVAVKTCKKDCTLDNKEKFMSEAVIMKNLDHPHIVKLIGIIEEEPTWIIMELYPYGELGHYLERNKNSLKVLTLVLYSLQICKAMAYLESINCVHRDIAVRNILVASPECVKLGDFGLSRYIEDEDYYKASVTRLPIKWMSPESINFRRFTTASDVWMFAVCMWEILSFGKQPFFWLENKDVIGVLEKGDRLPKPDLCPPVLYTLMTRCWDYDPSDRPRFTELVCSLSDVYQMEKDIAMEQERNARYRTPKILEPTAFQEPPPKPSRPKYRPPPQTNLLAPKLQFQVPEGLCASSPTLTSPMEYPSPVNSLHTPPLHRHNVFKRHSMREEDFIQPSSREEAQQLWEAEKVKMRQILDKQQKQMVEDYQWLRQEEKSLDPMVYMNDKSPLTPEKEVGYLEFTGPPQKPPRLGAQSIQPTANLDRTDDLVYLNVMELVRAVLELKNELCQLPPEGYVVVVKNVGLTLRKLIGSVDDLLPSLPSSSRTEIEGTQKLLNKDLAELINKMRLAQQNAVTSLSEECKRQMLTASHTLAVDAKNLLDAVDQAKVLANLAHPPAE
Chain of UniProt P15056 (whole entry, looked up): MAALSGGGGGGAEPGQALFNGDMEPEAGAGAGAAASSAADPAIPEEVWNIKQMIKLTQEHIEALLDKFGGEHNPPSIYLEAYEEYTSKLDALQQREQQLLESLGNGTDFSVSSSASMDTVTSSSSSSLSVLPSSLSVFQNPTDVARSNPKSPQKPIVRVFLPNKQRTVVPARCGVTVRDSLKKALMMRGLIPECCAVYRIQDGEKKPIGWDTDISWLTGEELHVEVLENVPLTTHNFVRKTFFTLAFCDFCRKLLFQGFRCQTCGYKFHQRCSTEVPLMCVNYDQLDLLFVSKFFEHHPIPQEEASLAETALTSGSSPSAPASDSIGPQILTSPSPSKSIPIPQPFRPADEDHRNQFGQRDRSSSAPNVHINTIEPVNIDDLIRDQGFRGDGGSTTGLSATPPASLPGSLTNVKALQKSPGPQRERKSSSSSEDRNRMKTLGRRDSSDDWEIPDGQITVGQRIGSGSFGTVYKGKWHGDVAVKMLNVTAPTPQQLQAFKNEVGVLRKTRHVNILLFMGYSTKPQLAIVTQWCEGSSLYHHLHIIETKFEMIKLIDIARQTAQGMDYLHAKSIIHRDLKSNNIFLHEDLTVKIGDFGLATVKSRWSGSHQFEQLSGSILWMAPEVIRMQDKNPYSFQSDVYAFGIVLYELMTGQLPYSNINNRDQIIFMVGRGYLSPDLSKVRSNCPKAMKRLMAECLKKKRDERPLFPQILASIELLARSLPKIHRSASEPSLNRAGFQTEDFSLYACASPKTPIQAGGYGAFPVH
Chain of UniProt P42336 (whole entry, unmodified, looked up): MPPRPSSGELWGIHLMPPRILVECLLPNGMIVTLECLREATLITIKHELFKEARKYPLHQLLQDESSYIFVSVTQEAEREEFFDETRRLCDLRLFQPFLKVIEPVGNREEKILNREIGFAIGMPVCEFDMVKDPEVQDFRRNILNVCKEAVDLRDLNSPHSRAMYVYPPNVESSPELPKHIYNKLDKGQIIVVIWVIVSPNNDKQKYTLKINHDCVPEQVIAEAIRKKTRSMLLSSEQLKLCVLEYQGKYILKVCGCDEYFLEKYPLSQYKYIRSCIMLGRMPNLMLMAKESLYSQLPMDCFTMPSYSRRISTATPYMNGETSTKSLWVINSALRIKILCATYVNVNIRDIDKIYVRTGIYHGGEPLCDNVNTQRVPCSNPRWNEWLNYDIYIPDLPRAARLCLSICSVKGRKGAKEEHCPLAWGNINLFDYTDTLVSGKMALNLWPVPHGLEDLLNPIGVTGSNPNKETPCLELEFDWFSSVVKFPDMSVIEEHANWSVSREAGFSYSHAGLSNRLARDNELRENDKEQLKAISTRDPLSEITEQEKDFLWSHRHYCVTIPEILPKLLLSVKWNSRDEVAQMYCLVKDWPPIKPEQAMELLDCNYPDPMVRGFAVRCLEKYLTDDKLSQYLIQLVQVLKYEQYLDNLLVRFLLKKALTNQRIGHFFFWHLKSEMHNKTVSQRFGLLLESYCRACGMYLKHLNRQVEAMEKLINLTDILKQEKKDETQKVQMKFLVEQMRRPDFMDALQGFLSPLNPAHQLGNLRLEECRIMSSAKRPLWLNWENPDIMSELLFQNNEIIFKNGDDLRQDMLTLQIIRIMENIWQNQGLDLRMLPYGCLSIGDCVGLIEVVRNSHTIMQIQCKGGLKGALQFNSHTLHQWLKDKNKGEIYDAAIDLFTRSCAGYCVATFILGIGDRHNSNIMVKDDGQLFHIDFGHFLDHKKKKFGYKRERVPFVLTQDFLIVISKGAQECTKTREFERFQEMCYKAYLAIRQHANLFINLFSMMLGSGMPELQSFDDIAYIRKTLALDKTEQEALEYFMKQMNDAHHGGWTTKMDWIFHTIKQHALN
Chain of UniProt O14757 (whole entry, looked up): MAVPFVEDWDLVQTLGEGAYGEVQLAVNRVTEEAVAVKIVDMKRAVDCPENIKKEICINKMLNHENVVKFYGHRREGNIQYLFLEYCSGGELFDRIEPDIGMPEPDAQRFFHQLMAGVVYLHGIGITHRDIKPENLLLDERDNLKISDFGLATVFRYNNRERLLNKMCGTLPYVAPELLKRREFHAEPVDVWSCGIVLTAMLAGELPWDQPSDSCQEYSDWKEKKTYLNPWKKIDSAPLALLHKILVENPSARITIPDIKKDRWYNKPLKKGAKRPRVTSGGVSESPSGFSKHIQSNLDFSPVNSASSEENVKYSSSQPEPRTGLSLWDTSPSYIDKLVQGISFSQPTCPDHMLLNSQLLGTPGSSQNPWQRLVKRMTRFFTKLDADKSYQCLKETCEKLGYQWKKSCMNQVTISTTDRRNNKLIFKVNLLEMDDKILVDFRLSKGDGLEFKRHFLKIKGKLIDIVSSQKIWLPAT

Set 1 — cell line: mouse MPNST tumor cells; method: high-content immunofluorescence imaging; item: nuclear SOX9; concentration: 10 µM; time: 12 h; notes: mean of 2 replicates; baseline: DMSO control; reading: higher = more nuclear SOX9
Compound | nuclear SOX9 intensity
O=C(NC[C@H](O)CN1CCc2ccccc2C1)c1ccnc(NC2CCC2)c1 | 97.7 % of DMSO and 99.6 % of DMSO
COc1cc(NC(=O)c2cccc(-n3cc(NC(=O)Nc4cccc(C)c4)cn3)c2)cc(OC)c1OC | 202 % of DMSO
Cc1c(Cl)cccc1Nc1ccccc1C(=O)O | 101 % of DMSO
COc1ccc(C#Cc2ccc(C(=O)N3CCC[C@@H](O)C3)c(F)c2)cc1 | 93.3 % of DMSO
Cc1ccccc1OCC(O)CO (stereo not drawn) | 99.6 % of DMSO
NC(=O)N1c2ccccc2CC(=O)c2ccccc21 | 119 % of DMSO

Set 2 — read-out: cell-free assay; method: competition with immobilised ligand; concentration: 1 µM
Compound: O=S(=O)(NC1CCC(c2cc(F)ccc2F)(S(=O)(=O)c2ccc(Cl)cc2)CC1)C(F)(F)F (stereo not drawn)
target | remaining binding
EGFR (Homo sapiens, UniProt P00533, G719C) | 100%
CHEK1 (Homo sapiens, UniProt O14757) | 100%
PTK2B (Homo sapiens, UniProt Q14289) | 100%
BRAF (Homo sapiens, UniProt P15056) | 93%
GRK2 (Homo sapiens, UniProt P25098) | 73%
PIK3CA (Homo sapiens, UniProt P42336, E545K) | 77%
STK35 (Homo sapiens, UniProt Q8TDR2) | 100%
ALK (Homo sapiens, UniProt Q9UM73) | 100%
LATS1 (Homo sapiens, UniProt O95835) | 100%
PLK3 (Homo sapiens, UniProt Q9H4B4) | 97%
LIM domain kinase 1 (LIMK1, Homo sapiens, UniProt P53667) | 86%
PIP5K1A (Homo sapiens, UniProt Q99755) | 100%
MAPK4 (Homo sapiens, UniProt P31152) | 95%
MAPK3 (Homo sapiens, UniProt P27361) | 100%

Set 3 — read-out: enzyme activity; action: inhibitor; concentration: 0.5 µM; baseline: control
Target: Calcium/calmodulin-dependent protein kinase kinase 1 (CAMKK1, Homo sapiens, UniProt Q8N5S9)
Chain of UniProt Q8N5S9 (whole entry, looked up): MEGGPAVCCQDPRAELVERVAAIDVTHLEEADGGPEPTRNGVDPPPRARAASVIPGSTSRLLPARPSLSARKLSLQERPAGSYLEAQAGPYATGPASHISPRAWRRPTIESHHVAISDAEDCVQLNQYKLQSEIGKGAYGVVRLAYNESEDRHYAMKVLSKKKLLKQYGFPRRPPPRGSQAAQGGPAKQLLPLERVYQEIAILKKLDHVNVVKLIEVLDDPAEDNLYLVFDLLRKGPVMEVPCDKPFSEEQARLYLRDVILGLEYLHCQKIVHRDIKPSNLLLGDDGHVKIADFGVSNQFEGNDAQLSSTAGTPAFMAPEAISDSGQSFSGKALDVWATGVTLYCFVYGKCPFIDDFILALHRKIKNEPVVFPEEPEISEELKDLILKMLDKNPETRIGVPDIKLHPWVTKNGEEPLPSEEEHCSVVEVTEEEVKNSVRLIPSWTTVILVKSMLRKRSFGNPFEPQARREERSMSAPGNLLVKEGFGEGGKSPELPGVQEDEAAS
Compound | remaining activity [%]
O=C(NC(NC(=S)Nc1ccc(F)c([N+](=O)[O-])c1)C(Cl)(Cl)Cl)C(c1ccccc1)c1ccccc1 (stereo not drawn) | 128
CCOc1nc(NC(=O)Cc2cc(OC)ccc2OC)cc(N)c1C#N | 104
O=C1C(Cl)=C(N2C(=O)CCC2=O)C(=O)c2ccccc21 | 112
O=C1c2ccccc2-c2n[nH]c3cccc1c23 | 84.3
COc1cc2c(cc1OC)-c1[nH]nc(Nc3cccc(F)c3)c1C2 | 81.5
N#C/C(=C\c1ccc(O)c(O)c1)C(=O)NCc1ccccc1 | 102
c1ccc(-c2[nH]ncc2-c2ccnc3ccccc23)nc1 | 109
Cn1nc2c3c(cccc31)C(=O)c1ccccc1-2 | 102
CN([C@@H](Cc1ccc(OS(=O)(=O)c2cccc3cnccc23)cc1)C(=O)N1CCN(c2ccccc2)CC1)S(=O)(=O)c1cccc2cnccc12 | 108

Single results of other studies
Compound | medium | endpoint | value
CCC[C@H]1NC(=O)CSC[C@@H](C(=O)OCC)N(C)C(=O)[C@H](CC(C)C)NC(=O)[C@@H](C)N(C)C(=O)[C@@H](CC(C)C)NC(=O)[C@H](C)N(C)C(=O)[C@@H]2CCCN2C(=O)[C@@H](CC(C)C)NC(=O)CN(C)C1=O | hydrocarbon/water | logD | 0.158
